{"data": "Published values collected from several papers", "note": "Numbered parts are unrelated; each lists some results of a single study."}
{"data": "Sample 1", "target": "Histone acetyltransferase KAT6A, both winged helices, GST fusion (KAT6A, Homo sapiens, UniProt Q92794, residues 1-181)", "technique": "protein binding microarray", "form": "double-stranded DNA, one strand shown", "medium": "in vitro", "concentration": "not given", "setting": "8-mer, flanks averaged, mean of 2 arrays, mostly near background", "reference": "not given", "direction": "higher = stronger binding", "Target sequence (chain)": "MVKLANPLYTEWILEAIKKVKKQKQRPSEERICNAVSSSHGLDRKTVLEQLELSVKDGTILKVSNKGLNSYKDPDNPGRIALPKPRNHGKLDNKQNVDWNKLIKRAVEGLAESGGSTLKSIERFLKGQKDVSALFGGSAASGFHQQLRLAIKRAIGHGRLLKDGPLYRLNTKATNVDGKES"}
{"Oligonucleotide": "AATACTCG", "E-score": -0.0252}
{"Oligonucleotide": "GGTGTCAA", "E-score": 0.04}
{"Oligonucleotide": "GCGAATAC", "E-score": 0.105}
{"Oligonucleotide": "ACGTGTAT", "E-score": -0.0531}
{"data": "Sample 2", "target": "Centromere-binding protein 1, full length, N-terminal tag (CBF1, Saccharomyces cerevisiae, UniProt P17106, residues 1-351)", "technique": "protein-binding microarray", "form": "double-stranded DNA, one strand shown", "medium": "in vitro", "concentration": "0.8 µM", "setting": "whole 60-bp probe, no competitor", "direction": "higher = stronger binding", "chain of UniProt P17106 (whole entry, looked up)": "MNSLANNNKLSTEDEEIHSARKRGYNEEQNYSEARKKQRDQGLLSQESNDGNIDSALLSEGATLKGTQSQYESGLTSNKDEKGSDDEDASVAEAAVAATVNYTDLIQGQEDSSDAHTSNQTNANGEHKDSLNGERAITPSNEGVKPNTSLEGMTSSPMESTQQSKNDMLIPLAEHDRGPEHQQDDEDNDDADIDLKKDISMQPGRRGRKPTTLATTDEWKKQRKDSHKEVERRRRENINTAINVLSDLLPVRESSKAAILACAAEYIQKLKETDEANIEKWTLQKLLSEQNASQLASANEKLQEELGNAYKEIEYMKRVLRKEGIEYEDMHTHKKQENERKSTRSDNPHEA"}
{"Oligonucleotide": "GAATACAAATTACGGTGTGACGTAGATCTGAATTAGGTCTTGATTCGCTTGACGCTGCTG", "fluorescence intensity [a.u.]": 555}
{"Oligonucleotide": "GAAATTATACACTTTCACCTGTTGCTGAGTGTGTAGGTCTTGATTCGCTTGACGCTGCTG", "fluorescence intensity [a.u.]": 549}
{"Oligonucleotide": "GAAGCACAGATACGTCATCAGGTACGAACACGATAGGTCTTGATTCGCTTGACGCTGCTG", "fluorescence intensity [a.u.]": 605}
{"data": "Sample 3", "target": "Interferon regulatory factor 5, full length, phosphomimetic (IRF5, Homo sapiens, UniProt Q13568-2, residues 1-514, K96S/S451D/S453D/S456D/S462D)", "technique": "protein-binding microarray", "form": "double-stranded DNA, one strand shown", "medium": "in vitro", "concentration": "250 nM", "setting": "60-bp whole probe", "with": "salmon DNA 0.4 mg/ml", "reference": "random background probes", "direction": "higher = stronger binding"}
{"Oligonucleotide": "GCCTAGCACGAAGGTCTCCTACTGCTGACGTGCTAGGTCTTGATTCGCTTGACGCTGCTG", "log fluorescence [z-score]": -0.273}
{"Oligonucleotide": "GCCTAGCACTATGCTTTCTTTAACTCATTGTGCTAGGTCTTGATTCGCTTGACGCTGCTG", "log fluorescence [z-score]": 1.28}
{"Oligonucleotide": "GCCTAGCACGACGGTCTCGGGACTGGGGACGTGCTAGTCTTGATTCGCTTGACGCTGCTG", "log fluorescence [z-score]": -0.468}
{"data": "Other studies, line by line"}
{"Molecule": "PhoQ, residues 284 288 289 292 302 303 SASVAL", "target": "PhoP, residues 12 14 15 18 19 GQALL (Escherichia coli, UniProt P23836)", "test": "Sort-seq, refers to: YFP reporter", "system": "E. coli", "setting": "PhoQ-PhoP variant library, with: 10 µM Mg2+", "how to read": "reference: high Mg2+ state, higher = stronger signaling", "quantity": "fold induction", "value": 3.27}
{"note": "Repeated from above (sample 2):"}
{"Oligonucleotide": "GAAATTATACACTTTCACCTGTTGCTGAGTGTGTAGGTCTTGATTCGCTTGACGCTGCTG", "fluorescence intensity [a.u.]": 549}
{"Oligonucleotide": "GAATACAAATTACGGTGTGACGTAGATCTGAATTAGGTCTTGATTCGCTTGACGCTGCTG", "fluorescence intensity [a.u.]": 555}
